Results pooled from the literature.
Each numbered part is a random draw from the data of one study; scales do not carry over between parts. Changes are numbered by the printed parent chain.

Block 1
Target: CCND3, cyclin fold, Cln2 fusion (human)
Technique: yeast growth competition, sequencing
Sample: yeast
Notes: weak parent motif
Baseline: not given
Reading: higher = stronger binding
Starting sequence: CDC6 docking peptide (human); TLKGRRLVFDNQL; partner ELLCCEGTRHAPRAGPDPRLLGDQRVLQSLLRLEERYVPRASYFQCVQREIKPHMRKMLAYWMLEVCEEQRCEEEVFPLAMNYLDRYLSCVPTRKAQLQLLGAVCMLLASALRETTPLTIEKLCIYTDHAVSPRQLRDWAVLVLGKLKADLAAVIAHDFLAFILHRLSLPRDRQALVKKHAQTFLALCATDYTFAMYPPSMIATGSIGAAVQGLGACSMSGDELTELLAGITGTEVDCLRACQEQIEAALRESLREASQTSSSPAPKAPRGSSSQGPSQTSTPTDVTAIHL
`TLVGRRLVFDNQL [K3V]`: “normalised enrichment score” 0.227.
`TLKSRRLVFDNQL [G4S]`: “normalised enrichment score” 0.029.
For `TLKGRRLVADNQL [F9A]`, “normalised enrichment score” read 0.125.
Under “normalised enrichment score”, `TLKGRRLDFDNQL [V8D]` is recorded as 0.161.
For `TLKGRRLVFDNQE [L13E]`, “normalised enrichment score” read 0.153.
`TLKGRRLVMDNQL [F9M]`: “normalised enrichment score” 0.0955.

Block 2
Target: RING finger protein unkempt homolog, zinc fingers 1-6, GST-SBP tag (UNK, Homo sapiens, UniProt Q9C0B0, residues 30-357)
Sequence of UniProt Q9C0B0 (30-357, looked up): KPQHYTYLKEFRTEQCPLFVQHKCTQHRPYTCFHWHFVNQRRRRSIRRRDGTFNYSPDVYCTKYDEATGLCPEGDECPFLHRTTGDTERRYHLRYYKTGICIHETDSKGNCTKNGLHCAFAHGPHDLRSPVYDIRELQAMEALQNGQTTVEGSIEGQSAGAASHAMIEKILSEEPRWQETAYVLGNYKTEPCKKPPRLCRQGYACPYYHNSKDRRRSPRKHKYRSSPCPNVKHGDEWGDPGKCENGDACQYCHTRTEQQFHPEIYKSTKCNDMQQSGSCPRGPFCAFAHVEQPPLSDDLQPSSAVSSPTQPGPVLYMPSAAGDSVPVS
Technique: RNA Bind-n-Seq
Form: RNA
Sample: in vitro
Concentration: not given
Notes: RNA with constant flanks, human and mouse sites, ends assumed
Baseline: input RNA pool
Reading: higher = stronger binding
For `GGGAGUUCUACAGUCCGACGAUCUUGUGCAUAUGAUGCUUGAGAUGGUUUUGCAGAUGCAGACAUCGCUGCAAGGUCAUUCUAAUAGAGACAAGCGGUAUUUUAAACCUUUGAAAGGAAUGGAUGUAACUGUACGUUGGUACACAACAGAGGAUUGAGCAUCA`, the bound/input enrichment was 0.238 ratio.
`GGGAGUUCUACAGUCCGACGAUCUCAUGGAACUUAUGUGUCAAAACAAAGGAACGGGCAGACUGUCCAUCCCAAGCCAGUUCAAUUAGAUGUAAAUUCAUACUGUUUUAAUUUUUUAUGCAAUCUGAUGAGUAGAUGGGCUCACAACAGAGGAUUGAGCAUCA` gave a bound/input enrichment of 4.1 ratio.
`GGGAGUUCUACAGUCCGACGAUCCUGAGAGAGCUGACAUCCCAGCAUCCUUACGCUGAAGUUUUCAUCGGGCGGCCACAUGUGUGGACUGUUGACCUCAACAAUCAGGAGGAAGUAGAGGAUGCAGUGAAAGCAAUUUUAAAUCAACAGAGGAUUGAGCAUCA` has a bound/input enrichment of 0.238 ratio.
With `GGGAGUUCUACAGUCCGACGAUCAUAACAUUACACGAAAUGGCAGAAACAGAUGAAGGAUGGUUGGAUGUUGUCCAGUCUUUAAUUAGAGUUAUUCCACUGGAAGAUCCACUGGGACCAGCUGUUAUAACAUUGUUACUAGAUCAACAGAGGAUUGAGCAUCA` the bound/input enrichment was 0.714 ratio.
`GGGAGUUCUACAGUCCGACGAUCAAGAAGAAGCAAGGGGAAGAUAACUCUCACACACAGGACACAGAAGACCUAGAAAAGGACACUAGAGAAGAGCUUCCAGUGAAUACCUCAAAAGCCCGACCAAAACAGGAGAAAGCUUGUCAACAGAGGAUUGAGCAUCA` gave a bound/input enrichment of 0.587 ratio.
`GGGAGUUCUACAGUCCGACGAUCCACGAAACAACCAAAAUGGUAAAGUAAUUCAGAGCGAGGAACGUUUGUUAUAAUUUCUUUCUUUUCAUACCCCCUCACAGUGGAAAAUGCUUCAUUCAUUGGAGGGUCCUGAGAUAGCCCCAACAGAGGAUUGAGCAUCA` gave a bound/input enrichment of 0.186 ratio.
The bound/input enrichment of `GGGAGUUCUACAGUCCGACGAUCUACUUAUGCCAAUAUUGUGAAUAUUCAACAGGACAAAUUGACGAUCUUAAAAUUCAUCUAGAUUUCAAGCAUUCAGCUGACUUGCCUCAUAAAUGUAGUGAGUGCUUGAUGAGGUUUGGGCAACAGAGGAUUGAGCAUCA` is reported as 0.288 ratio.

Block 3
Target: Interferon regulatory factor 7, full length, phosphomimetic (IRF7, Homo sapiens, UniProt Q92985, residues 1-503, S471D/S472D/S475D/S476D/S477D/S483D/S484D/S487D)
Technique: protein-binding microarray
Form: double-stranded DNA, one strand shown
Sample: in vitro
Concentration: 2200 nM top
Notes: 60-bp whole probe
Together with: salmon DNA 0.4 mg/ml
Baseline: random background probes
Reading: higher = stronger binding
All sequences stand within: GCCTAGCAC … GTCTTGATTCGCTTGACGCTGCTG
Construct (chain): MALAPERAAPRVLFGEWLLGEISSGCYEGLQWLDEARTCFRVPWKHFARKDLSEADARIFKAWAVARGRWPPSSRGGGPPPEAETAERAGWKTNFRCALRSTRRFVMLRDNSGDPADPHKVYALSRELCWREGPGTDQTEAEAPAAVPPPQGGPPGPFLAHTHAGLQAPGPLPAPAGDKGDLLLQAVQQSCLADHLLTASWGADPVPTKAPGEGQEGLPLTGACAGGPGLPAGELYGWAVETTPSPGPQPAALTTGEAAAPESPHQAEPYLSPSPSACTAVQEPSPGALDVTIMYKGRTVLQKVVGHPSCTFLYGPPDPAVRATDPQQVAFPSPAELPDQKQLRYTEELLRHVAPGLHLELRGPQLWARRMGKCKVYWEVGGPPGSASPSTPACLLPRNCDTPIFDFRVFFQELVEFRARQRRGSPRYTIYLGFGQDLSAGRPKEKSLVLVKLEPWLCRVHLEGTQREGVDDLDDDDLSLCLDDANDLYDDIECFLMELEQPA
For `TTAGAAATCAGACTGGATTAGTGCTAG`, “fitted relative affinity” read -0.784 z-score.
`GACAGTTCCGGTTTCGGGACGTGCTAG`: “fitted relative affinity” 6.55 z-score.
`AAAAATGATTGGTTGAACATGTGCTAG` — result for “fitted relative affinity”: -0.663 z-score.
`TACGGTATCGGGTATCGGGACGTGCTA`: “fitted relative affinity” 0.164 z-score.
`TTAGGACTCGGTATCGGTTAGTGCTAG` — result for “fitted relative affinity”: 0.83 z-score.
Under “fitted relative affinity”, `TTAGGTTCCGGTTCCGGTTAGTGCTAG` is recorded as 3.33 z-score.

Single results of other studies
For `PhoQ, residues 284 288 289 292 302 303 SNSSNI`, the fold induction was 4.53 (PhoP, residues 12 14 15 18 19 SEGLL (Escherichia coli, UniProt P23836); Sort-seq, measured: YFP reporter; E. coli; PhoQ-PhoP variant library, together with: 10 µM Mg2+; baseline: high Mg2+ state, higher = stronger signaling).

Excerpt of the above (block 1):
`TLKGRRLVMDNQL [F9M]`: “normalised enrichment score” 0.0955.
`TLKSRRLVFDNQL [G4S]`: “normalised enrichment score” 0.029.
For `TLKGRRLVFDNQE [L13E]`, “normalised enrichment score” read 0.153.
